Measurements collected from several papers.
Every numbered part comes from another study and shows a few of its results, in no order.

Series 1 — technique: RNA Bind-n-Seq; form: RNA; matrix: in vitro; concentration: 1 µM; setting: whole 134-nt RNA, ends assumed; added: 150 mM KCl; relative to: input library; reading: higher = stronger binding
Target: Ras GTPase-activating protein-binding protein 1, C-terminal RGG region (G3BP1, Homo sapiens, UniProt Q13283)
Chain of UniProt Q13283 (whole entry, looked up): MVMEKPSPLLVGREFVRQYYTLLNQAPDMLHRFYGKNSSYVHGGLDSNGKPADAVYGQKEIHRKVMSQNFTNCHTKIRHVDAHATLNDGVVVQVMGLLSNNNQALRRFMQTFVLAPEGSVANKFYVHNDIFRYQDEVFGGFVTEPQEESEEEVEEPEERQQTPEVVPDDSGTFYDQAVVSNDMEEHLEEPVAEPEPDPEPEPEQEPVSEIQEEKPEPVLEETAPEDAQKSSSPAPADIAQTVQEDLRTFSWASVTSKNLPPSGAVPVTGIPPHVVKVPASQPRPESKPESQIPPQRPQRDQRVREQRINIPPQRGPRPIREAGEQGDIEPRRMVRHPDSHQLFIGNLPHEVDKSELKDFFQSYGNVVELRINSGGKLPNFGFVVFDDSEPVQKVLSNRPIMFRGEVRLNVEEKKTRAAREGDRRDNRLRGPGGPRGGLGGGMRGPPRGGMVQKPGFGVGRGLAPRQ
`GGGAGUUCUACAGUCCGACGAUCGCAGGAAGUAAAAACAAAUGGGAAUGCUUCGGAUAGUGGCAGGGGUGGGGGUUGCUAAGGAAAGGGUGGGAUGGGAGUGGGUAAAGAGUUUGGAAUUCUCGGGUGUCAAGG` has a log2 enrichment of 2.31.
The log2 enrichment of `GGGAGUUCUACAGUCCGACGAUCAGUCCUGUGCUACACAUCGUAUGUACCGAAUCGGGGCCCCGGGCCCCGGGGCCCCGGAAAGUAUUAUGUUACGCCGUUCGGAUCUGCACUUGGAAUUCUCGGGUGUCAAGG` is reported as -1.11.
For `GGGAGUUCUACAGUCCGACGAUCUCCUGUGCUACACAUCGUAUGUACCGAAUCAAAUUUUUUUAAAUUUAAAUUUUUUUAAAAAAGUAUUAUGUUACGCCGUUCGGAUCUGCAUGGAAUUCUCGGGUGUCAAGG`, the log2 enrichment was -1.17.
`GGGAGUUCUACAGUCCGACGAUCCUGUGCUACACAUCGUAUGUACCGAAUCAAACCCCCCCAAAUUUUUUUAAAUUUUUUUAAAAAAGUAUUAUGUUACGCCGUUCGGAUCUGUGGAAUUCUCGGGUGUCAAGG` has a log2 enrichment of -1.45.
`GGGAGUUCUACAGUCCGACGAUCCAAGUCCUGUGCUACACAUCGUAUGUACCGAAUCGGGAAAGGGUUUGGGAAAGGGAAAGUAUUAUGUUACGCCGUUCGGAUCUGCACUUCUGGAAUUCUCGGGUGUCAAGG` gave a log2 enrichment of 1.66.
The log2 enrichment of `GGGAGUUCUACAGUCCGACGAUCGCAGGAAGUAAAAACAAAUGGAAAUGGUUCGGAUAGUGGCAGGGGUGGGGGUUGCUAAGGAAAGGGUGGGAUGGGAGUGGGUAAAGAGUUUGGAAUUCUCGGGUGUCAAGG` is reported as 1.86.
`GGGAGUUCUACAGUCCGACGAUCUCCUGUGCUACACAUCGUAUGUACCGAAUCGGGGAAAAAGGGGAGGGGAAAAAAAGGGGAAAGUAUUAUGUUACGCCGUUCGGAUCUGCAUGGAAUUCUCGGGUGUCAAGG` gave a log2 enrichment of 1.15.
`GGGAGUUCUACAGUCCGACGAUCUGGCCCUGGUGGCAUGCGGGGAGGAAGAGGUGGCCUCAUGGAUCGUGGUGGUCCUGGUGGAAUGUUCAGAGGUGGCCGUGGUGGAGACAGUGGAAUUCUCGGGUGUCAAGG` has a log2 enrichment of 1.93.
For `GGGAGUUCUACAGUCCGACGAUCUCAAGUCCUGUGCUACACAUCGUAUGUACCGAAUCGGCCGGGGCCGGGGCCGGGAAAGUAUUAUGUUACGCCGUUCGGAUCUGCACUUCCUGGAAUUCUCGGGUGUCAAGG`, the log2 enrichment was -1.88.

Series 2 — technique: protein binding microarray; form: double-stranded DNA, one strand shown; matrix: in vitro; concentration: not given; relative to: not given; reading: higher = stronger binding
Target: Histone acetyltransferase KAT6A, winged helix 2, GST fusion (KAT6A, Homo sapiens, UniProt Q92794, residues 85-181)
Setting: 8-mer, flanks averaged, mean of 2 arrays, mostly near background
Target sequence (chain): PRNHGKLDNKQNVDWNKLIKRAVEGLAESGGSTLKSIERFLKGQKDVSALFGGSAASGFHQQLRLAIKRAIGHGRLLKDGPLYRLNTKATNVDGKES
`CGCAGCGC` has an E-score of 0.242.
`AATACTAC` gave an E-score of -0.0328.
`CTGAAGCA` has an E-score of 0.1.
With `CAAAGGTA` the E-score was -0.063.
For `ACATAGTA`, the E-score was -0.0973.
`CAATAGTC` gave an E-score of -0.0505.
`ACATCGAT` gave an E-score of -0.212.
For `ATCTAGTA`, the E-score was 0.103.
With `GCGTGTAC` the E-score was -0.00466.
`CGTTCATC` gave an E-score of 0.134.
For `AACACAGG`, the E-score was -0.141.
`CAACTTCA` has an E-score of -0.145.
`CATGCTGA` has an E-score of 0.0506.
The E-score of `AACATTTG` is reported as -0.107.
`CATGTCTA` gave an E-score of -0.0629.
With `GACGTACA` the E-score was 0.00894.
For `ATAGACGA`, the E-score was -0.132.
With `GTGCAAAA` the E-score was 0.0595.
The E-score of `GCATGCGC` is reported as 0.218.
The E-score of `GCAAAGCC` is reported as 0.109.
`AATGGACG` gave an E-score of -0.0212.
For `AAATGACG`, the E-score was -0.142.
`CGCTGACC` has an E-score of 0.184.
`ATCGACGA` gave an E-score of 0.151.
`AACCAGGG` has an E-score of 0.0946.

Series 3 — technique: RNA Bind-n-Seq; form: RNA; matrix: in vitro; concentration: not given; relative to: input RNA pool; reading: higher = stronger binding
Target: RING finger protein unkempt homolog, zinc fingers 1-6, GST-SBP tag (UNK, Homo sapiens, UniProt Q9C0B0, residues 30-357)
Chain of UniProt Q9C0B0 (30-357, looked up): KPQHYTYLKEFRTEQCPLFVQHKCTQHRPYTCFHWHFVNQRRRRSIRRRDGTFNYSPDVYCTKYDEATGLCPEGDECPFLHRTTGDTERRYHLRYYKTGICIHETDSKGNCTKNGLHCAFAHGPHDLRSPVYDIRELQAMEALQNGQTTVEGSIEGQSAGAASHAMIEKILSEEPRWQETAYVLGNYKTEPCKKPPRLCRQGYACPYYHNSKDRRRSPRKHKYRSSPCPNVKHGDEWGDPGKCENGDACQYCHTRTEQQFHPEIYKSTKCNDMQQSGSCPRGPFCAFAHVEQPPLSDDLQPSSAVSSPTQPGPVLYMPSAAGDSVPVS
Setting: RNA with constant flanks, human and mouse sites, ends assumed
With `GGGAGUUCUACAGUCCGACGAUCGAGAGCCCAACCACUCCUCUGCUAGAUGACAUGGAUGGCUCUCAAGACAGCCCUAUCUUUAUGUAUGCCCCUGAGUUCAAGUUCAUGCCACCACCGACUUAUACUGAGGUGGAUCCCUGCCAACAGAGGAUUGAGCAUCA` the bound/input enrichment was 0.133 ratio.
`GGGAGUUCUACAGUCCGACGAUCUUUUCCUGGAUUAUUGUUCCUUUAUAUAUAAAGGUUUGAUCAUCCAGUGCCUUAAUUGGCUUUAGUAGUGUAGGUCUUACCAUUGUCACAGUCAAUUGAUUUGACUUCAGAGCGUAAUGGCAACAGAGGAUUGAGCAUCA` has a bound/input enrichment of 0.58 ratio.
With `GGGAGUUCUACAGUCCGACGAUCUGCUGUGCGCUCCUGGGAGCUUGACGGAGGCUAAGCCUCCACGGUGCUGUGAGGGGUCCAUAGUAUUUUUUUGCUGCCUCUGAGUCCCCAAGGCCUUUAAGCAGAAGUGACAGUAGAUGCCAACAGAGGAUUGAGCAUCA` the bound/input enrichment was 0.48 ratio.
With `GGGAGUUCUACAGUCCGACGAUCAUGUACCCUCUCAAGCCCAGCUGGUGGUUCUGUGCCUUCCCCUACAGUUUCCUCAUCUUCGUCUAUGAUGAGAUUCGCAAACUCAUCCUGCGCAGGAACCCCGGGGGUUGGGUGGAGAAACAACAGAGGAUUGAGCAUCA` the bound/input enrichment was 0.157 ratio.
`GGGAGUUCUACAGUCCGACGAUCCCCCAACCCUUUACUUAUUUGCAUACAUGUUUUCAUAGAACCUUGUAGUCUGAUAUUUAACUCCAUGAAGACUCGUCGGUAUAAAUCUCCUUGUUGUAUGCUCACCACUGGCUUUGAUUUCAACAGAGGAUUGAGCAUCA` has a bound/input enrichment of 1.73 ratio.
The bound/input enrichment of `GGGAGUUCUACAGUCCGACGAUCAAAUCCAUUUCCGUGUUUAAUGUUAGUUGUUUAUGUGUUAGUAUUCCUGUGUCUACUGUUUUGUUGUUGUUAAUAUGGGUAAAGUGAGCCCUGAAAUACAUGCUAAACAAGACAUGAAAUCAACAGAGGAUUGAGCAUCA` is reported as 1.46 ratio.
For `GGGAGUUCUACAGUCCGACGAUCAGAGCAGGCCUCUCCCCUCCGUCCUCGUCGUCCUCGUCCUCCUCCUCCUCCUCCUCCUCCGUGGUGGUAGUGGUGGGACUUCCCCCGGCUGCUGCCCCUCCCGCCGCCGCUGCUGUCCCCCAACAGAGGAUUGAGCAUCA`, the bound/input enrichment was 0.458 ratio.
For `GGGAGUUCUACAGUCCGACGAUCUGCUGCAGUAAAACACUGAAGGCUUUAAAAUGUUUUCUUGCAUAAAAGUCAAACUUUAAGUAGCUGCUUAUGAGGAUAGGGAAGGCAGGAAGCUAAUGUCUGUCUCAAGACACAGGACAGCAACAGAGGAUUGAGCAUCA`, the bound/input enrichment was 0.248 ratio.

Series 4 — technique: competition protein-binding microarray; form: double-stranded DNA, one strand shown; matrix: in vitro; concentration: 2 µM; added: Pho4 competitor, 0.05 µM; reading: higher = stronger binding
Target: Centromere-binding protein 1, full length, His-tagged (CBF1, Saccharomyces cerevisiae, UniProt P17106, residues 1-351)
Chain of UniProt P17106 (whole entry, looked up): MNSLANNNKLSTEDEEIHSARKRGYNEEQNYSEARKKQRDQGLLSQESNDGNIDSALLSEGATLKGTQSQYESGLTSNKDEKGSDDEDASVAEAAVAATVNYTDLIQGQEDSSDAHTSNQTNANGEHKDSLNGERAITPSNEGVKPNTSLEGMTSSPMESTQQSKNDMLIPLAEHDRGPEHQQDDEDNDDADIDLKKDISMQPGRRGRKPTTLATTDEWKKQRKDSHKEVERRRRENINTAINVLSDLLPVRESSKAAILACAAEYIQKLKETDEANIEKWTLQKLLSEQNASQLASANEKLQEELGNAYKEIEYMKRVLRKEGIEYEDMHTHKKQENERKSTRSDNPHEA
Setting: whole 60-bp probe, lowest competitor level
The fluorescence intensity of `AAATATCTAAGCCATCACATGACAGCAAGACCCTTTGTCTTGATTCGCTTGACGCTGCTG` is reported as 900 a.u.
`CGGGGTTAAGTTTGCGGAGTGGGTGGCTTGCAGCAGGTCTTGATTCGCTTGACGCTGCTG` gave a fluorescence intensity of 59.1 a.u.
`CGGGGTTAAGTTTGATTAGTGGGTGGCTTGCAGCAGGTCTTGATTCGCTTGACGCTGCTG` gave a fluorescence intensity of 76.4 a.u.
The fluorescence intensity of `CTTTCCCGATCTTGTCACAAGACTTTAGCACATTTGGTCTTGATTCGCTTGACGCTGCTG` is reported as 136 a.u.
For `TAATAATATTTATTACACGTGATGGAATATATCCTGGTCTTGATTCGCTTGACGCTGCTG`, the fluorescence intensity was 5010 a.u.
For `TGCGCAACAACTTGGGTGGTGGGTGTATGTCTAGAAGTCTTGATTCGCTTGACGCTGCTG`, the fluorescence intensity was 70.2 a.u.
The fluorescence intensity of `TGCGCAACAACTTGTCACGTCACTTTATGTCTAGAAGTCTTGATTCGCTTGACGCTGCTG` is reported as 143 a.u.
`AAATTACTAAGTTGTCACCTTACTTACCCCGTATGAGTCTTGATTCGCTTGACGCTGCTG` has a fluorescence intensity of 75.3 a.u.
The fluorescence intensity of `TATTGGTTTTAGAAACACGTTTCGAATCTTCAGTATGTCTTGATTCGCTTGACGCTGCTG` is reported as 147 a.u.
`AAATTACTAAGTTGAGGAGTGGGTGACGCCGTATGAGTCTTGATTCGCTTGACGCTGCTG` gave a fluorescence intensity of 63.5 a.u.
`CCAAAACTGACAACCGGCGTGCGGATATGCGGAAGAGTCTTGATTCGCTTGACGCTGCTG` gave a fluorescence intensity of 58.1 a.u.
`TGCGTTCTATGCGAAAACGTGCTAATTTAATATATAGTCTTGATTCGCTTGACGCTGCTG` has a fluorescence intensity of 428 a.u.
For `CGAATCCGGAAAAACTACGTGACGGGAACGATGACCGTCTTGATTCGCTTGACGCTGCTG`, the fluorescence intensity was 113 a.u.
`AGTGCCACCTTAAAGCACGCAGTTACTGTTTACGCTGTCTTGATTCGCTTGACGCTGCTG` has a fluorescence intensity of 69 a.u.
With `TATATTTTTCAACTCCACGTGATGGCAAGCCCAACCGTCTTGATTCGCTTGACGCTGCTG` the fluorescence intensity was 2420 a.u.
`CGTCCTAGCGATTGACTGGTGGGTGCCATGAGGAAGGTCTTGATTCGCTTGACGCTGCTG` gave a fluorescence intensity of 67.4 a.u.
`TCAAGTGGGGTAGGACACGGGACTTCAGGTCCTCCTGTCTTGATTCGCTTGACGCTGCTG` gave a fluorescence intensity of 188 a.u.
`TAATAATTAGCCCTTCACGTGATGGCAGCCAGTTGTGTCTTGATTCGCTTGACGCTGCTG` has a fluorescence intensity of 1870 a.u.
The fluorescence intensity of `ACCACCACAACGACAAGCGTGCCGATGTCCCCGTTAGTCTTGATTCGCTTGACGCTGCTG` is reported as 70.6 a.u.

A few entries again (series 2):
`CGTTCATC` gave an E-score of 0.134.
For `AACACAGG`, the E-score was -0.141.
`CAACTTCA` has an E-score of -0.145.
`CATGCTGA` has an E-score of 0.0506.
The E-score of `AACATTTG` is reported as -0.107.
`CATGTCTA` gave an E-score of -0.0629.
With `GACGTACA` the E-score was 0.00894.
For `ATAGACGA`, the E-score was -0.132.
